Measurements from different studies.
Lines come from different studies, so protocols differ. Numbers after ± are the reported error. Non-standard residues stand in square brackets, D forms with d. Square brackets hold non-standard residues; d marks the D form. Primed or numbered codes have the meaning given here. Ends that are not written are not given here. No end group written: not given here.
RB1 F897A/L901A/R908A: RB1 F897A/L901A/R908A (Homo sapiens, UniProt P06400)
UniProt P06400, sequence (whole entry, unmodified, looked up): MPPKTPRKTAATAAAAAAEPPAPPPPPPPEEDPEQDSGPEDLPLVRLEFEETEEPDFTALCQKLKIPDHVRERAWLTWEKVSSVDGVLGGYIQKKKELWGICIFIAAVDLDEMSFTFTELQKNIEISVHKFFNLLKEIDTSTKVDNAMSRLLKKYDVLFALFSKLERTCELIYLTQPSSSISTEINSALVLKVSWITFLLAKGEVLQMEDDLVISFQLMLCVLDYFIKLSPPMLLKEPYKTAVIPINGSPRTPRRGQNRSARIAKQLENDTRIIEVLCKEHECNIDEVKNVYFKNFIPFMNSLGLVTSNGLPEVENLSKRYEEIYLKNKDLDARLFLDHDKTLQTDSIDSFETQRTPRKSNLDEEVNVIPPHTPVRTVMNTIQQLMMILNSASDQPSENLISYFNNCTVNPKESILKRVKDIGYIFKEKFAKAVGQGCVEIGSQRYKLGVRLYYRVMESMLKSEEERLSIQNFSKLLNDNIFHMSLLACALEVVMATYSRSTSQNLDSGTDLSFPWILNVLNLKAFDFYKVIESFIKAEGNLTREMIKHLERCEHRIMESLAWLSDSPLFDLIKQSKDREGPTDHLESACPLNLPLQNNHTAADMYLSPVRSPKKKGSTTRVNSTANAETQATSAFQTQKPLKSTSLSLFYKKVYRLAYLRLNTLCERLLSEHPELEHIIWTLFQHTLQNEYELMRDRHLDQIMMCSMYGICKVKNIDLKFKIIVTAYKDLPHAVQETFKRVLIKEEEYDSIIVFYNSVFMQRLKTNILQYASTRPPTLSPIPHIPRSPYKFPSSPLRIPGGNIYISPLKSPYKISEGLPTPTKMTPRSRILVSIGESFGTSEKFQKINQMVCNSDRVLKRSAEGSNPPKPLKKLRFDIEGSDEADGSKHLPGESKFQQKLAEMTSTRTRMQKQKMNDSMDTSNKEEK
B1: Thy1 (Mus musculus, UniProt P01831); sequence looked up; chain QKVTSLTACLVNQNLRLDCRHENNTKDNSIQHEFSLTREKRKHVLSGTLGIPEHTYRSRVTLSNQPYIKVLTLANFTTKDEGDYFCELQVSGANPMSSNKSISVYRDKLVKC
B2: Cnpy2 (Mus musculus, UniProt Q9QXT0); sequence looked up; chain RRSQDLHCGACRALVDELEWEIARVDPKKTIQMGSFRINPDGSQSVVEVPYARSEAHLTELLEEVCDRMKEYGEQIDPSTHRKNYVRVVSRNGESSELDLQGIRIDSDISGTLKFACESIVEEYEDELIEFFSREADNVKDKLCSKRTDLCDHALHRSHDEL
B3: TIF4631 572-853 K590R (Saccharomyces cerevisiae, UniProt P39935); sequence looked up; chain LVPSANRWVPKFKSKKTERKLAPDGKTELLDKDEVERKMKSLLNKLTLEMFDAISSEILAIANISVWETNGETLKAVIEQIFLKACDEPHWSSMYAQLCGKVVKELNPDITDETNEGKTGPKLVLHYLVARCHAEFDKGWTDKLPTNEDGTPLEPEMMSEEYYAAASAKRRGLGLVRFIGFLYRLNLLTGKMMFECFRRLMKDLTDSPSEETLESVVELLNTVGEQFETDSFRTGQATLEGSQLLDSLFGILDNIIQTAKISSRIKFKLIDIKELRHDKNWN
B4: RAB8A (Homo sapiens, UniProt P61006); sequence looked up; chain MAKTYDYLFKLLLIGDSGVGKTCVLFRFSEDAFNSTFISTIGIDFKIRTIELDGKRIKLQIWDTAGQERFRTITTAYYRGAMGIMLVYDITNEKSFDNIRNWIRNIEEHASADVEKMILGNKCDVNDKRQVSKERGEKLALDYGIKFMETSAKANINVENAFFTLARDIKAKMDKKLEGNSPQGSNQGVKITPDQQKRSSFFRCVLL
B5: HP 162-406 (Homo sapiens, UniProt P00738); sequence looked up; chain ILGGHLDAKGSFPWQAKMVSHHNLTTGATLINEQWLLTTAKNLFLNHSENATAKDIAPTLTLYVGKKQLVEIEKVVLHPNYSQVDIGLIKLKQKVSVNERVMPICLPSKDYAEVGRVGYVSGWGRNANFKFTDHLKYVMLPVADQDQCIRHYEGSTVPEKKTPKSPVGVQPILNEHTFCAGMSKYQEDTCYGDAGSAFAVHDLEEDTWYATGILSFDKSCAVAEYGVYVKVTSIQDWVQKTIAEN
B6: POL30 (Saccharomyces cerevisiae, UniProt P15873); Cy3 label; sequence looked up; chain MLEAKFEEASLFKRIIDGFKDCVQLVNFQCKEDGIIAQAVDDSRVLLVSLEIGVEAFQEYRCDHPVTLGMDLTSLSKILRCGNNTDTLTLIADNTPDSIILLFEDTKKDRIAEYSLKLMDIDADFLKIEELQYDSTLSLPSSEFSKIVRDLSQLSDSINIMITKETIKFVADGDIGSGSVIIKPFVDMEHPETSIKLEMDQPVDLTFGAKYLLDIIKGSSLSDRVGIRLSSEAPALFQFDLKSGFLQFFLAPKFNDEE
B7: DKK1 183-266 (Homo sapiens, UniProt O94907); sequence looked up; chain GQEGSVCLRSSDCASGLCCARHFWSKICKPVLKEGQVCTKHRRKGSHGLEIFQRCYCGEGLSCRIQKDHHQASNSSRLHTCQRH
B8: Mesd (Mus musculus, UniProt Q9ERE7); chain ADTPGEATPPPRKKKDIRDYNDADMARLLEQWEKDDDIEEGDLPEHKRPSAPIDFSKLDPGKPESILKMTKKGKTLMMFVTVSGNPTEKETEEITSLWQGSLFNANYDVQRFIVGSDRAIFMLRDGSYAWEIKDFLVSQDRCAEVTLEGQMYPGKGGGSKEKNKTKPEKAKKKEGDPKPRASKEDNRAGSRREDL
UniProt O75581, sequence (whole entry, looked up): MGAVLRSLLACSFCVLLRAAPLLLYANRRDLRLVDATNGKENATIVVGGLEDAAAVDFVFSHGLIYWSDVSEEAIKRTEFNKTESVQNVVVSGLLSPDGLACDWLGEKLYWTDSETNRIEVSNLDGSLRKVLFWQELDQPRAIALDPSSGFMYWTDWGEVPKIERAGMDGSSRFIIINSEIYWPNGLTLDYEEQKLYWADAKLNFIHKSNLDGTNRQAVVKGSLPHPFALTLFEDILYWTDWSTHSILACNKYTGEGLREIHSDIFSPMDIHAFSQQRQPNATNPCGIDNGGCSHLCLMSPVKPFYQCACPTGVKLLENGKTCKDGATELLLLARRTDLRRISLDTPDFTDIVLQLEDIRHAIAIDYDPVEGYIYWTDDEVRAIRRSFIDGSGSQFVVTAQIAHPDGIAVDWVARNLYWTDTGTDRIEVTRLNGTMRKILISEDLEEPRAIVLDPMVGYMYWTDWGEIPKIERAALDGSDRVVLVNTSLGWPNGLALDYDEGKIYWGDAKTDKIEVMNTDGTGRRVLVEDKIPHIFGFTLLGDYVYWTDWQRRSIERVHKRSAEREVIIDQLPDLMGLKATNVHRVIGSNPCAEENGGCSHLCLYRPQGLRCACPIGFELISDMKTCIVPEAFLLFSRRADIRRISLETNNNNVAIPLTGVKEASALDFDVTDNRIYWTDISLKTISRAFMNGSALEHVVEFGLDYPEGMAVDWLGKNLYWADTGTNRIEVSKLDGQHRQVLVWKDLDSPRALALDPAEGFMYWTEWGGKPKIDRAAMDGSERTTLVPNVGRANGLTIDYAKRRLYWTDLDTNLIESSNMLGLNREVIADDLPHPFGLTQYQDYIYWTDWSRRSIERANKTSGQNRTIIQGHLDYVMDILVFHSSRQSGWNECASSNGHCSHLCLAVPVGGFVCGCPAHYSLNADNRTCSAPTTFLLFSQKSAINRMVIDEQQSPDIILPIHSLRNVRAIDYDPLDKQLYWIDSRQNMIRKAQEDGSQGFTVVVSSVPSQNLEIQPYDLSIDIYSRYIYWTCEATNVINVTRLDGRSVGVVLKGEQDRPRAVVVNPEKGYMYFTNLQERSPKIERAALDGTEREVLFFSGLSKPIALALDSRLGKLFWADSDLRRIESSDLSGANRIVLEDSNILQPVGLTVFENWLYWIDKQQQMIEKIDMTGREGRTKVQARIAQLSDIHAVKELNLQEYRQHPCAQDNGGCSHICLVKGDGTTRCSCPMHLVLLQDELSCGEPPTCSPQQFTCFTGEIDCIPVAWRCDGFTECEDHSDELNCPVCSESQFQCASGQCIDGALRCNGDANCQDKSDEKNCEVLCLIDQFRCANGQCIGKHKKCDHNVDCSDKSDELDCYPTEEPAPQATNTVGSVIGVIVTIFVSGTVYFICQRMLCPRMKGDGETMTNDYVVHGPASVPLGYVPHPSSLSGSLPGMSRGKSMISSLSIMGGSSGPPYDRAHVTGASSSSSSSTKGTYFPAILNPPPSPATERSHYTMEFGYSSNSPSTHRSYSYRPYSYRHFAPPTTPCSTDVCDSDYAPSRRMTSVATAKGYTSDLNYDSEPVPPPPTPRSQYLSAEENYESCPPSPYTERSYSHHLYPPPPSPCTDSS
UniProt P09429, sequence (whole entry, looked up): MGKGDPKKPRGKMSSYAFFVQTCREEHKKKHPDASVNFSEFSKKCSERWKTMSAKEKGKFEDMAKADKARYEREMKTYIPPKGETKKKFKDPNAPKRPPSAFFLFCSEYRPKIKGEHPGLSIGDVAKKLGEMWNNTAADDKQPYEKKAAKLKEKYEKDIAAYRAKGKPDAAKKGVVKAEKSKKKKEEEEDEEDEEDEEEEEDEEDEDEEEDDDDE
UniProt P01024, sequence (whole entry, unmodified, looked up): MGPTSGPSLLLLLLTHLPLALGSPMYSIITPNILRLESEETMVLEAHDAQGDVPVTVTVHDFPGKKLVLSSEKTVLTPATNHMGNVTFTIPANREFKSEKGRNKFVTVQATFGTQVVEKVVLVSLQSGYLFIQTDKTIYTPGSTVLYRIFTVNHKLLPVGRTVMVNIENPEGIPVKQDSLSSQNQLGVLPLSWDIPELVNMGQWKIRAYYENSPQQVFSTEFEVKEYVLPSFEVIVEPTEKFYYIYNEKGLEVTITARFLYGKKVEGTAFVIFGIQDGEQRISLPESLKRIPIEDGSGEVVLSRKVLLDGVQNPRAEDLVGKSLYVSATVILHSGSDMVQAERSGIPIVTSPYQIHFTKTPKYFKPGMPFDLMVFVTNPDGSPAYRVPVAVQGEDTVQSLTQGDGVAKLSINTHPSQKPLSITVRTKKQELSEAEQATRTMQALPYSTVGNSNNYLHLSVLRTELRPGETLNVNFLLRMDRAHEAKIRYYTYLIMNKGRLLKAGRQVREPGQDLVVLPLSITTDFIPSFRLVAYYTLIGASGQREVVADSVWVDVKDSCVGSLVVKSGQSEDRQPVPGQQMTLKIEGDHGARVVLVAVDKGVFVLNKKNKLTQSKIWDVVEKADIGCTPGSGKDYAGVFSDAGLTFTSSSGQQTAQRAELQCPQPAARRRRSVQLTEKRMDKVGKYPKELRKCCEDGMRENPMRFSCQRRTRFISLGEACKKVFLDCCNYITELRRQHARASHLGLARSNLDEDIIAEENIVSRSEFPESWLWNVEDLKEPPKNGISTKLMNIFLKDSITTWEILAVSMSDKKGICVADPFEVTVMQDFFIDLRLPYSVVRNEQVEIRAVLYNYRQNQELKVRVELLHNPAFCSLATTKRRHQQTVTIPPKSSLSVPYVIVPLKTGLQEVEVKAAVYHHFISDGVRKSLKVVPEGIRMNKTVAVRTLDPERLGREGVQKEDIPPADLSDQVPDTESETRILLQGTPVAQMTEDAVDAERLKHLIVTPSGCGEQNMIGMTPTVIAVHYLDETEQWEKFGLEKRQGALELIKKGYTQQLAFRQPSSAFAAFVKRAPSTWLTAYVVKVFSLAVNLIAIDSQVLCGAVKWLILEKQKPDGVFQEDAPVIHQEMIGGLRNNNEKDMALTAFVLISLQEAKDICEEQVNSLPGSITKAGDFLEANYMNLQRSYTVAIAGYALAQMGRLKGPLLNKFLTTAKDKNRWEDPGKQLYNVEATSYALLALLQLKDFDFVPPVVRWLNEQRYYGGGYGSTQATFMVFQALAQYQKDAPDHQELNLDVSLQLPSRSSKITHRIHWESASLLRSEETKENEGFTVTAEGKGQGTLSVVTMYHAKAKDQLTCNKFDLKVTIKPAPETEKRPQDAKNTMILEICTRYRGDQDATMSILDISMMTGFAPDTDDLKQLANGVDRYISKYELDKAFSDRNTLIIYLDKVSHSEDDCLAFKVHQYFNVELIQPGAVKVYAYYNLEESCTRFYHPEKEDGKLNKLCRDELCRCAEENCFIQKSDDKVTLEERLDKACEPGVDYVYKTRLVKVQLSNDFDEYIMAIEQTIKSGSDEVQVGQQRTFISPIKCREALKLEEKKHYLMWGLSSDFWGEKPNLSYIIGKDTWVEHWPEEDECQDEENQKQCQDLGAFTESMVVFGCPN
UniProt P03956, sequence (whole entry, looked up): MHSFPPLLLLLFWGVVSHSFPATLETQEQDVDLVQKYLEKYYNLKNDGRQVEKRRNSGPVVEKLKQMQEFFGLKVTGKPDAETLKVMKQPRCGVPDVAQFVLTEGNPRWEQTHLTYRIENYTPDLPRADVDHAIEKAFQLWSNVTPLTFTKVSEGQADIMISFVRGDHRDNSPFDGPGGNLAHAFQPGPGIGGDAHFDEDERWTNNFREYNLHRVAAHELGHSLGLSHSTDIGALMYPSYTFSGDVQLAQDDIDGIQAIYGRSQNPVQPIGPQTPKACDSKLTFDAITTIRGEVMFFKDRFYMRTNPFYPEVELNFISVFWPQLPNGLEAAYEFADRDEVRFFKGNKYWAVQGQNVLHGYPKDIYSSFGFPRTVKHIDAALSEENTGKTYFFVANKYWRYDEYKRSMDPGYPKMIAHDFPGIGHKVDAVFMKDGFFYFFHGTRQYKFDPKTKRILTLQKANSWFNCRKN
UniProt Q13158, sequence (whole entry, looked up): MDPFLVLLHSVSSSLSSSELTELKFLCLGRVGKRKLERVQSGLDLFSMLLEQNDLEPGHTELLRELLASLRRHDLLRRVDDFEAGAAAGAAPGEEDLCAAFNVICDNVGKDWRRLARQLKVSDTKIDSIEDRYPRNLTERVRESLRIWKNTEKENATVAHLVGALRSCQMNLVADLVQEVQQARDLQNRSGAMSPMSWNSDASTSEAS

RFC1/RFC2/RFC3/RFC4/RFC5 Rfc1 284-end (Saccharomyces cerevisiae) — kobs of clamp release (POL30 1-258 C22S/C62S/C81S/S43C, MDCC on Cys43 (Saccharomyces cerevisiae, UniProt P15873); stopped-flow fluorescence; 100 nM DNA, 20 °C, together with: ATP 0.5 mM): 0.41 ± 0.04 s⁻¹
B1 (Thy1) — koff (ITGAV/ITGB3 extracellular, Fc fusion 31-992 (Homo sapiens); optical tweezers force spectroscopy; Fc fusion): 0.036 ± 0.01 s⁻¹
CALM1 T26C, Alexa Fluor 568 at C26 (sequence not shown) — donor fluorescence intensity (Camk2d T287A (Rattus norvegicus); FRET; 100 nM; relative to: initial value, lower = more quenching): 60%
B2 (Cnpy2) — phosphorylation (Eif2ak3 (Mus musculus, UniProt Q9Z2B5); kinase activity, activator; relative to: without CNPY2, higher = more phosphorylation): 2 fold
{Cy5.5(3)}-TNYLFSPNGPIARAW (peptide; N-terminal Cy5.5; Cy5.5(3) = Cy5.5 fluorescent dye) — koff (EPHB4 16-539 (Homo sapiens, UniProt P54760); SPR; peptide): 0.00528 s⁻¹
SERPINA1 S313C, Texas Red, Alexa Fluor 488 — stoichiometry of inhibition (trypsin (Bos taurus); trypsin inhibition): 1.1
FGF14 full length, CLuc fusion S226A (Homo sapiens) — peak luminescence (CD4/SCN8A/NLuc Nav1.6 C-terminal tail; split-luciferase complementation; HEK293; higher = more interaction): 10100 RLU
ACTN1 fragment (Homo sapiens) — β-galactosidase activity (FADD (Homo sapiens, UniProt Q13158); two-hybrid; higher = stronger interaction): 0.01 Miller units
TIMP2 N-terminal domain S4P/I35V/S68N/V71I/H97R — Ki (MMP1 100-269 (Homo sapiens, UniProt P03956); fluorogenic substrate cleavage, inhibitor, enzyme inhibition assay; apparent): 0.11 nM
IKBKB full length (Homo sapiens) — relative Vmax (NFKBIA 1-54 (Homo sapiens, UniProt P25963); steady-state kinetics; together with: ATP; higher = faster phosphorylation): 250 a.u.
Ac-SSEVNA-NH2 (PLCB3 residues 581-586, N-acetyl, C-amide (Homo sapiens); N-acetyl, C-amide) — inhibition (PLCB3 (Homo sapiens, UniProt Q01970); ACh-induced Ca2+ transient; peptide, HEK293; 100 µM, 1 h, together with: ACh 1 µM; relative to: vehicle, higher = stronger inhibition): 52%
ACTC1 R312H — Vmax (heavy meromyosin HMM (Oryctolagus cuniculus); myosin ATPase activity, steady-state kinetics; together with: ATP 2 mM): 18.2 µM/s
Cxcl2 dimer T27C, disulfide across dimer interface (Mus musculus) — EC50 (Cxcr2 (Mus musculus, UniProt P35343); Ca2+ release, agonist, FLIPR; mouse bone marrow neutrophils; disulfide-trapped dimer): 176 nM
CCND3/CDK6 fusion, linker (Homo sapiens) — Rb phosphorylation (RB1 F897A/L901A/R908A; in vitro kinase assay; relative to: wild-type Rb, higher = greater difference): 30 fold
B3 (TIF4631 572-853 K590R) — binding (TIF1 Q186C/G370C, Alexa488/Alexa546 labels (Saccharomyces cerevisiae, UniProt P10081); conformation of molecule, smFRET): binds
IL2 V91R (Homo sapiens) — pSTAT5+ CD8 T cells (IL2RB (Homo sapiens, UniProt P14784); flow cytometry; human PBMCs; relative to: wildtype IL2, higher = greater reduction): 100 fold
HP (Homo sapiens, UniProt P00738) — EC50 (HMGB1 (Homo sapiens, UniProt P09429); TNF and IL-8 secretion, inhibitor; primary human macrophages; together with: HMGB1 2 µg/mL): 20 µg/mL
Kcnab1 (Rattus norvegicus, UniProt P63144) — steady-state current increase (Kcna1 (Rattus norvegicus, UniProt P10499); inside-out patch electrophysiology; together with: cortisone 500 µM; higher = more inactivation relief): 84%
CCND1/CDK4 fusion, linker (Homo sapiens) — Rb phosphorylation (RB1 F897A/L901A/R908A; in vitro kinase assay; relative to: wild-type Rb, higher = greater difference): 30 fold
GCVRLHESCLGQQVPCCDPAATCYCQYRGDGMKHCYCR (AgRP variant) — IC50 (ITGAV/ITGB3 whole, on cells (Homo sapiens); competition with labeled echistatin, radioligand binding; designed binder, U87MG; 3 h, room temperature, together with: 125I-echistatin 0.06 nM): 900 nM
C3 C3(H2O), hydrolysed thioester (UniProt P01024) — relative binding (CFP trimer (Homo sapiens, UniProt P27918); flow cytometry; thrombin-activated platelets; together with: properdin P3 25 µg/mL; relative to: activated platelets without properdin, higher = more C3(H2O) bound): 1.5 fold
ETDKE[pY][pY]TVKD (JAK1 1029-1039; pY1034/pY1035; pY = N[C@@H](Cc1ccc(OP(=O)(O)O)cc1)C(=O)O) — molecule per partner (PTPN6 243-530 C453S (Homo sapiens, UniProt P29350); ITC; peptide; pH 8.0, 25 °C, NaCl 100 mM): 0.8
Gphn E domain , monomeric — fluorescence lifetime (ARHGEF9 1-456, CB2-SH3+, FlAsH on tetra-cysteine motif (rat); CFP donor lifetime, time-resolved fluorescence; 1 µM, pH 8, NaCl 250 mM, together with: ligand 100 µM): 1.78 ns
SERPINC1 R45E/R46E/K114E/R129E (Homo sapiens) — k2 (coagulation factor IXa; steady-state kinetics; room temperature, together with: heparin): 82 M⁻¹ s⁻¹
B4 (RAB8A) — relative binding (Myo5a 1260-1853 (Mus musculus, UniProt Q99104); pull-down; CHO-IR, lysate; 15 min, together with: insulin 100 nM; relative to: basal without insulin, higher = more binding): > 2 fold
B5 (HP 162-406) — EC50 (HMGB1, disulfide form (UniProt P09429); HMGB1-induced TNF release, inhibitor; RAW): 10 µg/mL
B6 (POL30) — koff (RAD30 (Saccharomyces cerevisiae, UniProt Q04049); single-molecule TIRF; pH 7.5): 0.53 ± 0.01 s⁻¹
IDEYFSEQPLKNLLLSTSEAQIEKCFIIENISTIA (IFNAR1 478-512 E497A (Homo sapiens, UniProt P17181)) — apparent Tm reduction (TYK2 23-583 (Homo sapiens, UniProt P29597); differential scanning fluorimetry; peptide): > 5 °C
GRGDS-NH2 (GRGDS peptide; C-terminal amide) — IC50 (ITGAV/ITGB3; competition with ligand, ELISA; peptide; pH 7.6): 294 ± 114 nM
B7 (DKK1 183-266) — molecule per partner (LRP6 630-1244 (Homo sapiens, UniProt O75581); SEC, dynamic light scattering): 1
B8 (Mesd) — migration inhibition (LRP6 (Homo sapiens, UniProt O75581); transwell assay; MDA-MB-231, BT549; 2 µM, 4 µM): 85 % inhibition
DLAT L2 domain, lipoylated — ΔH (Pdk2 T302A (Rattus norvegicus); ITC; 30 °C, together with: ATP 10 mM): -16.6 kcal/mol
KATGAA[pT]PKKSAKW (histone H1.4 residues 139-151 (Homo sapiens); pT145; pT = C[C@@H](OP(=O)(O)O)[C@H](N)C(=O)O) — exchange rate constant (PIN1 51-163 (Homo sapiens, UniProt Q13526); EXSY NMR; peptide; 1 mM peptide, 25 °C): 5.6 s⁻¹
WDR48 fragment (Homo sapiens) (sequence not shown) — molecule per partner (USP12/ubiquitin, covalent Ub-PRG warhead (Homo sapiens); SEC-SAXS): 2 UAF1 per USP12
GIGYF2 fragment (Homo sapiens) — half-life of complex (EIF4E2 52-234 (Homo sapiens, UniProt O60573); competitor displacement of 4E-BP1, pull-down): 5 min

For quick reference, copied from above:
IL2 V91R (Homo sapiens) — pSTAT5+ CD8 T cells (IL2RB (Homo sapiens, UniProt P14784); flow cytometry; human PBMCs; relative to: wildtype IL2, higher = greater reduction): 100 fold
ACTC1 R312H — Vmax (heavy meromyosin HMM (Oryctolagus cuniculus); myosin ATPase activity, steady-state kinetics; together with: ATP 2 mM): 18.2 µM/s
WDR48 fragment (Homo sapiens) (sequence not shown) — molecule per partner (USP12/ubiquitin, covalent Ub-PRG warhead (Homo sapiens); SEC-SAXS): 2 UAF1 per USP12
